Published values collected from several papers.
Each numbered part is a random draw from the data of one study; scales do not carry over between parts. Positions count from the first letter of the parent shown.

Sample 1
Target: Interferon regulatory factor 5, full length, phosphomimetic (IRF5, Homo sapiens, UniProt Q13568-2, residues 1-514, S451D/S453D/S456D/S462D)
Technique: protein-binding microarray
Molecule type: double-stranded DNA, one strand shown
Medium: in vitro
Concentration: 940 nM top
Setting: 60-bp whole probe
With: salmon DNA 0.4 mg/ml
Relative to: random background probes
Reading: higher = stronger binding
Shared flanks, not repeated: GCCTAGCAC … GTCTTGATTCGCTTGACGCTGCTG
For `GACGACATCAGTCTCGAGACGTGCTAG`, “fitted relative affinity” read 0.741 z-score.
`GGCTTTGACTCTTTCTGTCAGTGCTAG`: “fitted relative affinity” 0.24 z-score.
`AAGACTCTCTTGTCTGGATGTGTGCTA`: “fitted relative affinity” 0.0993 z-score.
Under “fitted relative affinity”, `TTGGATATCAGTCTCGATTAGTGCTAG` is recorded as 3.28 z-score.
For `CTTTAACTCATTCTCTGTTTGTGCTAG`, “fitted relative affinity” read 1.94 z-score.
Under “fitted relative affinity”, `TCACATACGAGTTTCCAACTGTGCTAG` is recorded as -0.0118 z-score.
`GACGGTTTCCTTTTACTGACGTGCTAG`: “fitted relative affinity” 2.31 z-score.
Under “fitted relative affinity”, `GTAGGACTGGACTATCGGTTAGTGCTA` is recorded as -0.395 z-score.
`TTAGGTATCGGTATCGCTTAGTGCTAG` — result for “fitted relative affinity”: 9.93 z-score.
`TTAGGACTGGGGTTTCGGTTTGTGCTA` — result for “fitted relative affinity”: 5.11 z-score.
`GGCGAACTGAGTATCGAGACGTGCTAG`: “fitted relative affinity” 1.3 z-score.
For `TTAGGTATCAGTCTCGATTAGTGCTAG`, “fitted relative affinity” read 5.19 z-score.
`TCAGATTTCAGGAATTGAACTGTGCTA`: “fitted relative affinity” -0.444 z-score.
`TCCCATTAAATTTTAATAACGTGCTAG`: “fitted relative affinity” 0.846 z-score.
For `TCAGCTTCCTCTCTGCCACTGTGCTAG`, “fitted relative affinity” read 0.758 z-score.
`TTAGGTTACGGTTCCGGTTAGTGCTAG`: “fitted relative affinity” 1.58 z-score.
`GAAGGTCTCGGTCTCGGGACGTGCTAG`: “fitted relative affinity” 2.87 z-score.

Sample 2
Target: RNA binding protein fox-1 homolog 2, RRM domain, GST-SBP tag (RBFOX2, Homo sapiens, UniProt O43251-10, residues 100-194)
Technique: RNA Bind-n-Seq
Molecule type: RNA
Medium: in vitro
Concentration: 365 nM
Setting: natural RNA segment, single round, ends assumed
Relative to: no-protein control
Reading: higher = stronger binding
Shared flanks, not repeated: GGGAGUUCUACAGUCCGACGAUC … UGGAAUUCUCGGGUGCCAA
Target sequence (chain): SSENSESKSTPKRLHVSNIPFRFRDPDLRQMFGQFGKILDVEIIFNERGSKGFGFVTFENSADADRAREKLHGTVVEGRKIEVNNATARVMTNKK
Under “RBNS enrichment (R)”, `ACCUAUUGCCUAUGAGAAACAUGUAAGAUAAUGUAUUUACAGCCAUUGUUACAAGUUUAUAAUGUAUUUUUCUAUCUUGUUUUAUAUGUAUGUUAUAUAACAUUCAAAAA` is recorded as 0.468.
For `UUUCAUGACCUAGGGAAAAAGGAAUUACUCCUUUUUGUAGACUCAUACCUGAAAGCAGUGAUUUACUAGAAUUGCUUUGUGUGGCUACUAAGUUUAUUUUGUCAAAAAUG`, “RBNS enrichment (R)” read 0.368.
`UGCAUUGGGGCUGCCUUUCUGUUUGGCUUAGGAACUUCUGUGCUUCUUGUGGCUCCACUCGCGAGGCAGCUCGGAGGUGUGGACUCCGAUUGGGCUGCAGGCAGCUCUGG`: “RBNS enrichment (R)” 1.
`ACUCAACAACCUCCCACCCCUGUCCUGCUGCAUGGUCCGGAGUCUGGGACCUACUUUGUUUUUUGUUAUUUAUGACCUUGUUUAAAGAAAAUAAAUAUCUCCCAACCUUU`: “RBNS enrichment (R)” 7.1.
For `AAUAUAUUGAAAUGGGAGCUUUCAAGUCAAGGAGCCAAACAUAGUAACUAAAUCAUGACCAUCUGAUGCAAGAUGCAGUCAUAUCCAUGGUACUGAAAAUAACAUGAUGC`, “RBNS enrichment (R)” read 0.546.
For `AGCCUCACCCUCUCCACCUUUCAGCCUCCAGAGACUUUGGGGAGGGGGUUAAUCAACCCCGCGUGUUUCUGUUUUAUUGAAAAAGCAGACAUUUUUUUUUAAAUGGUCAC`, “RBNS enrichment (R)” read 0.438.
For `UUGUUUUCAUUGUUUGCAGCGGAUCACUGGACAUCAAAGAUUCAUUGCACUUAUGAACAAGGAACCUUCUUUUCAAUUUCUGUGUAAUUUGCAAGGCUGUACAAUGUGUG`, “RBNS enrichment (R)” read 0.659.
Under “RBNS enrichment (R)”, `AUAGUAUUUCUAUAAUUAUGUAACGAGAAUAGUGUUGCACUGUAAUCUAUCAUAUAGAGCUAUAUGUAUGGAAAAUUUUGAUCAAUUUUUUAAGAAAUGUAUCCUGUUUG` is recorded as 0.488.
`AUUUUGUAGUACACAUGAAGCAGAAGGGAAAGAAGUAGGCAGAAAUGAGCAGUUCGCUCCUCCCUGAUAAGAGUUGUCCCAAAGGGUCGCUUAAGGAAUCUGCCCCACAG` — result for “RBNS enrichment (R)”: 0.283.
`GCUCCGCAGGUUACCUCAUGGCAUAUCAAAAAUGGCUUUUUUCUUCACUGCGCUCAAGGAAAAAGUCAGAUGGGUGACAAGGUGGUUCUGUUUAGAAGCAGCAGGCAAUG`: “RBNS enrichment (R)” 0.196.
Under “RBNS enrichment (R)”, `AGGUUGUUGCUUUAUUUUUUUAAGGCUCUGGAGUGUUGUGUAUGGUUUCUUUUCACAUCCCAGCCUCCCAUGGGCACUUCUAAGAAGAGAGGGGAUUUCUUGGAAAAGGA` is recorded as 0.3.
Under “RBNS enrichment (R)”, `ACAUCUGAAUCCAAGGGAUCCAAGUGGCCCAGCAGAAACGGAAUUCUUGUUAAAAUGACUGAUUCUCGUGCAUGUGAAAGGCUCUGGGGAAUGAAUACCUGUUUGGUCCA` is recorded as 15.5.

Sample 3
Target: Centromere-binding protein 1, full length, N-terminal tag (CBF1, Saccharomyces cerevisiae, UniProt P17106, residues 1-351)
Sequence of UniProt P17106 (whole entry, looked up): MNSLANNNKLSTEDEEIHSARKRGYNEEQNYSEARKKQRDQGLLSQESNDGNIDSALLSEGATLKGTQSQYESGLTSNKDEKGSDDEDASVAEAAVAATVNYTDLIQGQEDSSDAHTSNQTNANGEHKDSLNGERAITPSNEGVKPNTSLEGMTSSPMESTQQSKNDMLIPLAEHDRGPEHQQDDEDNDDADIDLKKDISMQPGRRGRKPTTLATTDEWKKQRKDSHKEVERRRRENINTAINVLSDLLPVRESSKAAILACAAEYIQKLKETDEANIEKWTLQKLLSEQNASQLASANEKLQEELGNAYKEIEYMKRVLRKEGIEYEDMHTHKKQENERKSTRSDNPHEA
Technique: protein-binding microarray
Molecule type: double-stranded DNA, one strand shown
Medium: in vitro
Concentration: 0.8 µM
Setting: whole 60-bp probe, no competitor
Reading: higher = stronger binding
Shared flanks, not repeated: … GTCTTGATTCGCTTGACGCTGCTG
For `GAAGAATACTAGTATCACGAATACTAGTCAGTATAG`, the fluorescence intensity was 520 a.u.
With `GAAGGCTGTTGGTTTGTCGTGATACGTAGTGCTTAG` the fluorescence intensity was 565 a.u.
The fluorescence intensity of `CTATATAGCGTGGATTGCGTGAGATTGTGTGGATTC` is reported as 531 a.u.
`CTATTAATGACGAATCACGAAGAAAATATATCTTTC` gave a fluorescence intensity of 533 a.u.
`CTACCTAAATGACATCACGATGATAAATCCTCCTTC` has a fluorescence intensity of 646 a.u.
With `GAAGAAATAATCGATCACCATCGTTGCCTCTTTTAG` the fluorescence intensity was 530 a.u.
For `CTACTGATTACGGATCACGTTCAAATTGGTAAATTC`, the fluorescence intensity was 2080 a.u.
`GAATTAAGGTTGTCTGTCGTGATTAACGGAGCCTAG` has a fluorescence intensity of 537 a.u.
For `GAATCTAATAAATTTCACGTGATGCGGTAGTTTTAG`, the fluorescence intensity was 10300 a.u.
For `GAATGACAGATGTCTGGTCTGGTGGTATCGTATTAG`, the fluorescence intensity was 550 a.u.
`CCTAACTACTATAGACATGTGCAATAGCTTCGTACA` has a fluorescence intensity of 715 a.u.
`GAATGAAACTGATGTCTGATGCTGTTCTTTCTTTAG` has a fluorescence intensity of 526 a.u.
The fluorescence intensity of `GAACCCACGTCCAATCAGCAGAGAGAAGCTGTTTAG` is reported as 1690 a.u.
`GAAATGTACTTCTATTACAGCTGATTAAAAACATAG` gave a fluorescence intensity of 625 a.u.
The fluorescence intensity of `GAACAGAATAATGCACACGTATAAAGTACCAATTAG` is reported as 521 a.u.
The fluorescence intensity of `CTATCGCACATACACCACCTTCTTTTTTTTTTTTTC` is reported as 538 a.u.
`GAACTGACTGATTATGACGTCGGATCCTATGACTAG` gave a fluorescence intensity of 575 a.u.
With `CTAATTCGTTTTAATCATGTGTCAGTATGAGATTTC` the fluorescence intensity was 1200 a.u.
The fluorescence intensity of `CTAGGGTACTTGCGTCAGCTGTTCAGATCTTCTTTC` is reported as 881 a.u.
`GAATAATATCCGCAGAACATGATGCTAAAAGCCTAG` gave a fluorescence intensity of 563 a.u.
`GAAAACCCTAAGAAGCACGTGATACAAACCTGTTAG` has a fluorescence intensity of 13200 a.u.
For `GAACGGCTGAGAGGTGACCTGAAAGAAAGTAGTTAG`, the fluorescence intensity was 527 a.u.
`GAAGTATATGCATTGTACGTGCGTTTATTCTTATAG` gave a fluorescence intensity of 521 a.u.
`CTACTTTACCTAAATCATGTGGCCTATCTTCAGTTC` has a fluorescence intensity of 1160 a.u.
The fluorescence intensity of `GAAGTGGAACAAAGCCACGGGCGGCTGTAACAATAG` is reported as 495 a.u.

Sample 4
Target: CCND1, cyclin fold, Cln2 fusion (human)
Technique: yeast growth competition, sequencing
Medium: yeast
Setting: weak parent motif
Relative to: not given
Reading: higher = stronger binding
Starting sequence: CDKN1B docking peptide (human); PSACRNLFGPVDH
`PSACRNLFGPRDH [V11R]`: “normalised enrichment score” 0.146.
For `PSACRRLFGPVDH [N6R]`, “normalised enrichment score” read 1.15.
`PSACRNGFGPVDH [L7G]` — result for “normalised enrichment score”: 0.213.
For `PSAERNLFGPVDH [C4E]`, “normalised enrichment score” read 0.302.
For `PSACRNLFWPVDH [G9W]`, “normalised enrichment score” read 0.0887.
Under “normalised enrichment score”, `PSACRQLFGPVDH [N6Q]` is recorded as 1.52.
Under “normalised enrichment score”, `PSACRNLFIPVDH [G9I]` is recorded as 0.366.
`PSAHRNLFGPVDH [C4H]`: “normalised enrichment score” -0.168.
Under “normalised enrichment score”, `PSTCRNLFGPVDH [A3T]` is recorded as 0.503.
Under “normalised enrichment score”, `PKACRNLFGPVDH [S2K]` is recorded as 0.866.
`PSKCRNLFGPVDH [A3K]` — result for “normalised enrichment score”: -0.154.
Under “normalised enrichment score”, `PSACRNLFGPMDH [V11M]` is recorded as 0.634.
Under “normalised enrichment score”, `PSACRNLFEPVDH [G9E]` is recorded as 0.647.
For `PSACRNLFGPVDW [H13W]`, “normalised enrichment score” read 1.38.
For `PSACPNLFGPVDH [R5P]`, “normalised enrichment score” read 0.314.
`PSACRNIFGPVDH [L7I]`: “normalised enrichment score” 0.828.
For `PSACRNLAGPVDH [F8A]`, “normalised enrichment score” read 0.0657.
For `PSACENLFGPVDH [R5E]`, “normalised enrichment score” read 0.927.
`PSACRGLFGPVDH [N6G]`: “normalised enrichment score” 0.107.
`PSACRNLFMPVDH [G9M]`: “normalised enrichment score” 0.422.
`PSACRNLFTPVDH [G9T]`: “normalised enrichment score” 0.299.

Some of these lines once more (sample 3):
`CTATTAATGACGAATCACGAAGAAAATATATCTTTC` gave a fluorescence intensity of 533 a.u.
`CTACCTAAATGACATCACGATGATAAATCCTCCTTC` has a fluorescence intensity of 646 a.u.
With `GAAGAAATAATCGATCACCATCGTTGCCTCTTTTAG` the fluorescence intensity was 530 a.u.
For `CTACTGATTACGGATCACGTTCAAATTGGTAAATTC`, the fluorescence intensity was 2080 a.u.
`GAATTAAGGTTGTCTGTCGTGATTAACGGAGCCTAG` has a fluorescence intensity of 537 a.u.
For `GAATCTAATAAATTTCACGTGATGCGGTAGTTTTAG`, the fluorescence intensity was 10300 a.u.
For `GAATGACAGATGTCTGGTCTGGTGGTATCGTATTAG`, the fluorescence intensity was 550 a.u.
`CCTAACTACTATAGACATGTGCAATAGCTTCGTACA` has a fluorescence intensity of 715 a.u.
`GAATGAAACTGATGTCTGATGCTGTTCTTTCTTTAG` has a fluorescence intensity of 526 a.u.
The fluorescence intensity of `GAACCCACGTCCAATCAGCAGAGAGAAGCTGTTTAG` is reported as 1690 a.u.
`GAAATGTACTTCTATTACAGCTGATTAAAAACATAG` gave a fluorescence intensity of 625 a.u.
The fluorescence intensity of `GAACAGAATAATGCACACGTATAAAGTACCAATTAG` is reported as 521 a.u.
